Measurements gathered from unrelated publications.
Each numbered part is a random draw from the data of one study; scales do not carry over between parts. Changes are numbered by the printed parent chain.
Sequence of UniProt P28335 (whole entry, looked up): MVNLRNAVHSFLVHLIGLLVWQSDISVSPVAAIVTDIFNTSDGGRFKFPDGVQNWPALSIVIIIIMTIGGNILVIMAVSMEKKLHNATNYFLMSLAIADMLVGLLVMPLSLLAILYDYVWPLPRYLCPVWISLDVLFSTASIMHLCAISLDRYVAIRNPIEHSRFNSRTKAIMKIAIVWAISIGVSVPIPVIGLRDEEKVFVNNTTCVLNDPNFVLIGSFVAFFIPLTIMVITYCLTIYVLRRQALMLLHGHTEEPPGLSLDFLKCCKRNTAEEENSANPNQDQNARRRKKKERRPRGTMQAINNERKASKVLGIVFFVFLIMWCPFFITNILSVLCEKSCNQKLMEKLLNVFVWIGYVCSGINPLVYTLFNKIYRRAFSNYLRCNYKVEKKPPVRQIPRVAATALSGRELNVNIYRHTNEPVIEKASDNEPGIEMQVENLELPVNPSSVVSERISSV

Block 1 — Molecule: DTFDEAFLAAVRSHQG; technique: competitive growth deep sequencing; molecule type: peptide; concentration: concentration not given; setting: peptide tiling library; direction: direction not given
tested on | test | system | growth enrichment score
yeast with cyclin F-Cln2 chimera | cell growth, binder |  | -0.0149
yeast with cyclin B3-Cln2 chimera | cell growth, binder |  | 0.767
yeast with cyclin D1-Cln2 chimera | cell growth, binder |  | 1.14
Saccharomyces cerevisiae | binding | cyclin D2-Cln2 fusion strain | 0.865
Saccharomyces cerevisiae | binding | cyclin E1-Cln2 fusion strain | 1.16
yeast with cyclin E2-Cln2 chimera | cell growth, binder |  | -0.0588
yeast with cyclin D2-Cln2 chimera | cell growth, binder |  | -0.215

Block 2 — effect on: binding; technique: phage display NGS; molecule type: peptide; reference: input library
Target: UDP-N-acetylglucosamine--peptide N-acetylglucosaminyltransferase 110 kDa subunit (OGT, Homo sapiens, UniProt O15294)
Sequence of UniProt O15294 (whole entry, looked up): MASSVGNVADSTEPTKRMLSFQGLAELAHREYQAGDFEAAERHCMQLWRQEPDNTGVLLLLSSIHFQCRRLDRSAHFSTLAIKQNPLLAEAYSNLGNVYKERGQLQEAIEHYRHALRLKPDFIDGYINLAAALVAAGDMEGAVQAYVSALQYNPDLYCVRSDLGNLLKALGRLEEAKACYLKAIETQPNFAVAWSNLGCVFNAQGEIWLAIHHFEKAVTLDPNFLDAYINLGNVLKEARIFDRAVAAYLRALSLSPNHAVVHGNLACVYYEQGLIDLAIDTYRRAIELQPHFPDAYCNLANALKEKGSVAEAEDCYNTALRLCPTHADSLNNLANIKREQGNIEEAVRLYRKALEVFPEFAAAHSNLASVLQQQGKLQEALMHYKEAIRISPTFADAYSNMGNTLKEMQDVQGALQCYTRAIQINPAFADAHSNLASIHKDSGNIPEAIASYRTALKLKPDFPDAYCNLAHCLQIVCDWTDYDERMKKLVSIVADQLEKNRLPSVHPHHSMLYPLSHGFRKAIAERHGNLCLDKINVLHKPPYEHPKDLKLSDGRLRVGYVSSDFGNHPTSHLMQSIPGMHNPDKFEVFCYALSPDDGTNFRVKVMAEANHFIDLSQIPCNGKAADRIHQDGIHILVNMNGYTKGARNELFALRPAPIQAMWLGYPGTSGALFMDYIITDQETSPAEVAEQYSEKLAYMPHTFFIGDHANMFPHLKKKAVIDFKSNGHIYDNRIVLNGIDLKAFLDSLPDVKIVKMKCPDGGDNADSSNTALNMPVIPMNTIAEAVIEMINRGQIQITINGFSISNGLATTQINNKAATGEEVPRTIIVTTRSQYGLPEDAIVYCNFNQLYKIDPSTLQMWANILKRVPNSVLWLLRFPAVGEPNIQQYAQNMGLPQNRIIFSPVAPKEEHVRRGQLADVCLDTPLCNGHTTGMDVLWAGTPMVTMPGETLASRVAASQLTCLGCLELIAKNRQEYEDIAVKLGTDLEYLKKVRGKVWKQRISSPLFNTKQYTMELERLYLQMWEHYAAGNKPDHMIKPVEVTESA
Molecule | minimum log2 enrichment ratio
HKHLMDRHDFMYMHA | 3.02
SWMPFYQIEFSQGSS | 3.89
LISVPPQYQIRYWKD | 3.79
HQQHSMHFKWNIIQA | 1.91
FYPPVYQIQQSWVAS | 3.72
HTYYQHQHGQGDRYI | 1.67
HQHQQPQQHVKWHKF | 1.9
HVTSPMQLTNWHFHA | 1.36

Block 3 — target: vanadate, free oxyanion; technique: microfluidic competitive inhibition; matrix: in vitro, cell-free expressed; concentration: not given; direction: lower = stronger binding
Setting: derived from inhibition constants, unchanged parent 676 nM
Parent: PafA, mature enzyme, eGFP fusion (Elizabethkingia meningoseptica, UniProt Q9KJX5); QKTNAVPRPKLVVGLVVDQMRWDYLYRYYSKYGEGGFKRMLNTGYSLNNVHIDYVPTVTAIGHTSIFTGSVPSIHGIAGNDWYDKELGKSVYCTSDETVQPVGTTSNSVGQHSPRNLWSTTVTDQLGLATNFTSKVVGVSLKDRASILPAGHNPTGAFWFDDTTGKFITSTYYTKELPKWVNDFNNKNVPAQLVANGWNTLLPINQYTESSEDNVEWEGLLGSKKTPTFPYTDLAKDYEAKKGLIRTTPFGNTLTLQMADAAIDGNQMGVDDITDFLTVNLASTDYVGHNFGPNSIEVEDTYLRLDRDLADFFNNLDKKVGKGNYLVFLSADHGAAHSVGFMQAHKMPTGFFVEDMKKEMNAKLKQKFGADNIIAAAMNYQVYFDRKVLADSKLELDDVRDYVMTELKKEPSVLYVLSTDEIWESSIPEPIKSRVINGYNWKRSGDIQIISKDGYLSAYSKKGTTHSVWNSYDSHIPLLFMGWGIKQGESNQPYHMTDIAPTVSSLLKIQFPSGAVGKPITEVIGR
Substitution | oxyanion analog dissociation constant [nM]
E212G | 575
I61G | 381
K38G | 532
E489G | 908
A191V | 776
N440V | 775
P227G | 480
Y325V | 820

Further values, each from its own experiment
Structure (SMILES) | target | test | conditions | endpoint | value
CN([C@@H]1CCc2c(CC(=O)O)c3ccccc3n2C1)S(=O)(=O)c1ccc(F)cc1 | 5-hydroxytryptamine receptor 2C (HTR2C, Homo sapiens, UniProt P28335) | ligand displacement | 10 µM | inhibition | -1.51%

Excerpt of the above (block 3):
Substitution | oxyanion analog dissociation constant [nM]
K38G | 532
E489G | 908
